Experimental data gathered from unrelated publications.
± marks the error that the study gave.

COC(=O)c1ccc(NC(=O)c2[nH]c(C)c(Cl)c2Cl)c(N2CCNCC2)c1.Cl  MIC (Enterococcus faecium; microbial growth, broth dilution; ATCC35667): > 32 µg/mL
Brc1cccc(NCc2ccc(Oc3ccccn3)cc2)c1  MIC (Mycobacterium tuberculosis; H37Rv, GAST-Fe medium; 2 weeks, pH 6.6): 20 to 40 µM
NC[C@@H]1O[C@H](O[C@H]2[C@@H](O)[C@H](O[C@@H]3[C@@H](O)[C@H](N)C[C@H](N)[C@H]3O[C@H]3O[C@H](CO)[C@@H](O)[C@H](O)[C@H]3N)O[C@@H]2CO)[C@H](N)[C@@H](O)[C@@H]1O  MIC (Mycolicibacterium smegmatis; wild type): 0.12 µg/mL
CC1(C)S[C@@H]2[C@H](NC(=O)[C@H](N)c3ccccc3)C(=O)N2[C@H]1C(=O)O  MIC (Enterococcus faecium): > 367 µM
CCOC(=O)c1c(N)csc1-c1cn(-c2ccccc2)nc1-c1ccc(C)cc1  MIC (Bacillus subtilis; broth microdilution; clinical urinary isolate; compound gamma-irradiated 15 kGy): 0.124 ± 0.6 µg/mL
pneumocandin A0  MIC (Candida tropicalis; broth microdilution, resazurin; ATCC 750; 24 h, 35 °C): 1.6 µg/mL
COc1cccc(NCc2ccc(Oc3ccccn3)cc2)c1  MIC (Mycobacterium tuberculosis; H37Rv, GAST-Fe medium; 2 weeks, pH 6.6): 20 to 40 µM
O=C1NC(=O)c2cc(Nc3ccc(F)cc3)c(Nc3ccc(F)cc3)cc21  IC50 (HeLa expressing ODD-Luc; ODD-Luc degradation, inhibitor, cycloheximide chase luciferase): ~10 µM
CC1(C)S[C@@H]2[C@H](NC(=O)[C@H](N)c3ccccc3)C(=O)N2[C@H]1C(=O)O  MIC (Salmonella enterica; microbial growth, broth dilution; TYPHIMURIUM): 8 µg/mL
CN1CC(O)=C(C(=O)NC(C(=O)NC2C(=O)N3C2SC(C)(C)C3C(=O)O)c2ccccc2)C1=O (stereo not drawn)  MIC (Escherichia coli; broth microdilution; BW25113, Mueller-Hinton broth; added: 2,2'-bipyridyl 30 µg/mL): 100 µg/mL
COc1ccc(NCc2ccc(Oc3ccccn3)cc2)cc1  MIC (Mycobacterium tuberculosis; H37Rv, GAST-Fe medium; 1 weeks, pH 6.6): 41 µM
CCc1cc(=O)c2c(OCC(O)CN3CCC(C)CC3)c3ccoc3c(OC)c2o1 (stereo not drawn)  MIC (Staphylococcus epidermidis; broth microdilution; ATCC 35984; 19 h, 35 °C): > 256 µg/mL
C#C[C@]1(COP(=O)(O)OP(=O)(O)OP(=O)(O)O)O[C@@H](n2cnc3c(N)nc(F)nc32)C[C@@H]1O  Tmax (human PBMC tumour model; host not given, plasma; oral, 30 mg, single dose, fed): 18 h
Cc1ccc(S(=O)(=O)N2C(=O)CSC2c2ccc(Br)cc2)cc1 (stereo not drawn)  MIC (Salmonella enterica; microbial growth, broth dilution; TYPHIMURIUM): 16 µg/mL
CCc1cc(=O)c2c(OCC(O)CN(CC)CC)c3ccoc3c(OC)c2o1 (stereo not drawn)  MIC (Staphylococcus epidermidis; broth microdilution; ATCC 35984; 19 h, 35 °C): > 256 µg/mL
Cc1ccc(S(=O)(=O)N2C(=O)CSC2c2ccc(C(C)C)cc2)cc1 (stereo not drawn)  MIC (Salmonella enterica; microbial growth, broth dilution; TYPHIMURIUM): > 256 µg/mL
c1ccc(NCc2ccc(Oc3ccccn3)cc2)cc1  MIC (Mycobacterium tuberculosis; H37Rv, 7H9/ADC/Tween medium; 2 weeks): > 50 µM
CSCC[C@H](NC(=O)[C@H](CC(C)C)NC(=O)[C@H](Cc1c[nH]cn1)NC(=O)CNC(=O)[C@@H](NC(=O)[C@H](C)NC(=O)[C@H](Cc1c[nH]c2ccccc12)NC(=O)[C@H](CCC(N)=O)NC(=O)CCCCCNC(=O)[C@H](CCC(=O)NCCCC[C@@H]1NC(=O)[C@@H](Cc2ccc(O)cc2)NC(=O)[C@H](CC(=O)O)NC(=O)CNC(=O)[C@H](CCCNC(=N)N)NC1=O)NC(=O)CN1CCN(CC(=O)O)CCN(CC(=O)O)CC1)C(C)C)C(N)=O [copper-64 labelled]  tissue uptake (ICR SCID mouse, female, liver; intravenous, 750 kBq, 4 h): 1.1 ± 0.11 %ID/g
CC1(C)S[C@@H]2[C@H](NC(=O)[C@H](N)c3ccccc3)C(=O)N2[C@H]1C(=O)O  MIC (Cutibacterium acnes; broth microdilution; ATCC 6919; 24 h, 37 °C): 7.5 µg/mL
Cc1ccc(NCc2ccc(Oc3ccccn3)cc2)cc1  MIC (Mycobacterium tuberculosis; H37Rv, GAST-Fe medium; 2 weeks, pH 6.6): 43 µM
Cc1[nH]c(C(=O)Nc2ccc(-c3n[nH]c(=O)o3)cc2N2CCC[C@H](N)C2)c(Cl)c1Cl.Cl  MIC (Enterococcus faecium; microbial growth, broth dilution; ATCC35667): 2 µg/mL
CC1(C)SC2C(NC(=O)C(NC(=O)C3=C(O)C(Cc4ccsc4)NC3=O)c3ccccc3)C(=O)N2C1C(=O)O (stereo not drawn)  MIC (Escherichia coli; broth microdilution; BW25113, Mueller-Hinton broth; 18 h, without clavulanic acid): 50 µg/mL
Cc1ccc(-c2cc3ccccc3[nH]2)cc1  viability (HEK293; cell growth or viability; 50 µM): 86.6%
Cc1[nH]c(C(=O)Nc2ccc(C(=O)O)cc2N2CCNCC2)c(Cl)c1Cl.Cl  MIC (Enterococcus faecium; microbial growth, broth dilution; ATCC35667): > 32 µg/mL
Cc1ccc(S(=O)(=O)N2C(=O)CSC2c2cccc(F)c2)cc1 (stereo not drawn)  MIC (Salmonella enterica; microbial growth, broth dilution; TYPHIMURIUM): 64 µg/mL
Clc1cccc(NCc2ccc(Oc3ccccn3)cc2)c1  MIC (Mycobacterium tuberculosis; H37Rv, GAST-Fe medium; 2 weeks, pH 6.6): 20 to 40 µM
Cc1ccc(-c2ncn(-c3ccc(Nc4nccc(-c5cccc(N6CCOCC6)c5)n4)cc3)n2)cn1  therapeutic window (NIH3T3 in PANC/NIH microtissues; fibroblast toxicity; chronic toxicity, unit not given; reference: AC50 ATP over AC50 NanoLUC, day 7): 5.64
pneumocandin B0  MIC (Candida tropicalis; broth microdilution, resazurin; ATCC 750; 24 h, 35 °C): 1.6 µg/mL
C#CCn1c(-c2ccccc2)cc2ccccc21  viability (HEK293; cell growth or viability; 50 µM): 105%
Cc1ccc(S(=O)(=O)N2C(=O)CSC2c2ccc(O)cc2)cc1 (stereo not drawn)  MIC (Salmonella enterica; microbial growth, broth dilution; TYPHIMURIUM): 32 µg/mL
Cc1ccccc1NCc1ccc(Oc2ccccn2)cc1  MIC (Mycobacterium tuberculosis; H37Rv, GAST-Fe medium; 1 weeks, pH 6.6): 43 µM
Polymyxin B  MIC (Bacillus subtilis; broth microdilution; BR 151, Mueller-Hinton broth; 18 h, 37 °C): 4 µg/mL
CCc1cc(=O)c2c(OCC(O)CNC(C)C)c3ccoc3c(OC)c2o1 (stereo not drawn)  MIC (Staphylococcus epidermidis; broth microdilution; ATCC 35984; 19 h, 35 °C): > 256 µg/mL
Brc1ccc(NCc2ccc(Oc3ccccn3)cc2)cc1  MIC (Mycobacterium tuberculosis; H37Rv, 7H9/ADC/Tween medium; 2 weeks): 70 µM
CC(C)CC1NC(=O)C(C(=O)NC(C(=O)NC2C(=O)N3C2SC(C)(C)C3C(=O)O)c2ccccc2)=C1O (stereo not drawn)  MIC (Escherichia coli; broth microdilution; BW25113, Mueller-Hinton broth): 50 µg/mL
CN(C)C(=N)N=C(N)N  MIC (Mycobacteroides abscessus; microbial growth; 19977): > 512 µM
COc1ccc2ncc(F)c(CCN3CCC(/C=C\c4ccc(C)cc4)CC3)c2n1  MIC (Salmonella enterica; microbial growth, broth dilution; ATCC14028 TYPHIMURIUM): ≥ 64 µg/mL
Cc1ccc(S(=O)(=O)N2C(=O)CSC2c2ccccc2O)cc1 (stereo not drawn)  MIC (Salmonella enterica; microbial growth, broth dilution; TYPHIMURIUM): 64 µg/mL
CC1(C)SC2C(NC(=O)C(NC(=O)C3=C(O)C4(CC4)NC3=O)c3ccccc3)C(=O)N2C1C(=O)O (stereo not drawn)  MIC (Escherichia coli; broth microdilution; BW25113, Mueller-Hinton broth; added: CCCP 50 µg/mL): 50 µg/mL
CC(C)[C@H](NC(=O)[C@@H]1CCCN1C(=O)[C@H](CCCNC(=N)N)NC(=O)[C@H](CS)NC(=O)[C@H](Cc1c[nH]c2ccccc12)NC(=O)[C@H](CCCNC(=N)N)NC(=O)[C@@H](Cc1ccccc1)NC(=O)[C@H](Cc1c[nH]cn1)NC(=O)[C@H](CCC(=O)O)NC(=O)[C@H](CS)NC(=O)[C@H](CS)NC(=O)[C@H](CCCCN)NC(=O)[C@@H]1CC(=O)N[C@@H](CCCNC(=N)N)C(=O)N[C@@H](C)C(=O)N[C@@H](CC(=O)O)C(=O)N[C@H](Cc2ccc(O)cc2)C(=O)N1)C(N)=O [technetium-99m labelled]  tissue uptake (C57 mice, bladder; iv, 0.037 MBq, 2 h): 65.8 ± 7.08 %ID
Cc1ccc(S(=O)(=O)N2C(=O)CSC2c2ccc([N+](=O)[O-])cc2)cc1 (stereo not drawn)  MIC (Salmonella enterica; microbial growth, broth dilution; TYPHIMURIUM): 64 µg/mL
CC1(C)SC2C(NC(=O)C(NC(=O)C3=C(O)CN(c4ccccc4)C3=O)c3ccccc3)C(=O)N2C1C(=O)O (stereo not drawn)  MIC (Escherichia coli; broth microdilution; BW25113, Mueller-Hinton broth; added: CCCP 50 µg/mL): 100 µg/mL

Repeated from above:
CCOC(=O)c1c(N)csc1-c1cn(-c2ccccc2)nc1-c1ccc(C)cc1  MIC (Bacillus subtilis; broth microdilution; clinical urinary isolate; compound gamma-irradiated 15 kGy): 0.124 ± 0.6 µg/mL
Brc1ccc(NCc2ccc(Oc3ccccn3)cc2)cc1  MIC (Mycobacterium tuberculosis; H37Rv, 7H9/ADC/Tween medium; 2 weeks): 70 µM
Cc1ccc(NCc2ccc(Oc3ccccn3)cc2)cc1  MIC (Mycobacterium tuberculosis; H37Rv, GAST-Fe medium; 2 weeks, pH 6.6): 43 µM
C#C[C@]1(COP(=O)(O)OP(=O)(O)OP(=O)(O)O)O[C@@H](n2cnc3c(N)nc(F)nc32)C[C@@H]1O  Tmax (human PBMC tumour model; host not given, plasma; oral, 30 mg, single dose, fed): 18 h
Cc1ccccc1NCc1ccc(Oc2ccccn2)cc1  MIC (Mycobacterium tuberculosis; H37Rv, GAST-Fe medium; 1 weeks, pH 6.6): 43 µM
